Measurements pooled from the literature.
Every numbered part comes from another study and shows a few of its results, in no order. Positions count from the first letter of the parent shown.

Block 1
Target: Sal-like protein 4, full length isoform B (SALL4, Homo sapiens, UniProt Q9UJQ4-2, residues 1-616)
Method: universal PBM
Molecule type: double-stranded DNA, one strand shown
Sample: in vitro
Tested at: not given
Setting: 8-mer, flanks averaged, mean of replicates
Direction: higher = stronger binding
Quantity: E-score
Construct (chain): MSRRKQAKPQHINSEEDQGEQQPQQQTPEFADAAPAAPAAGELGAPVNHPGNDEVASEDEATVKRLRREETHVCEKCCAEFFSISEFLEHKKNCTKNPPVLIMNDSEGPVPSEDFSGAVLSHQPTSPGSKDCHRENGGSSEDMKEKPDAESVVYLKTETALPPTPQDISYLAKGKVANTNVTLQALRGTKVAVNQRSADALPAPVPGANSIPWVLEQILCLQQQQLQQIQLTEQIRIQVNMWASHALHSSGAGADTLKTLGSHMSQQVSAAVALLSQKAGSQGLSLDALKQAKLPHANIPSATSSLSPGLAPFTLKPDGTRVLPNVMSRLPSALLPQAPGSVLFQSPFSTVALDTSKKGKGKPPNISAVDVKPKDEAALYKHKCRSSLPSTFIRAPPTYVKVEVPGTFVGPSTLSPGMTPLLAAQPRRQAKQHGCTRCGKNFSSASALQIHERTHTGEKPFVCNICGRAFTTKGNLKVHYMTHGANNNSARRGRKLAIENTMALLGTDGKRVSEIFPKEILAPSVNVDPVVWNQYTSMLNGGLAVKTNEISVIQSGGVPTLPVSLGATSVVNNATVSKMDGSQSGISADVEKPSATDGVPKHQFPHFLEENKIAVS
GACTTTTA: 0.024
AGTATCCG: -0.0199
AAACATGA: 0.263
GCAGTTCC: -0.25
ATTCACGC: -0.0284
ACTTTGTA: 0.225
CTAATTCA: 0.258
AACAATTA: 0.357
CATGGCCC: -0.25
CAGGTTCA: -0.12
AGTTCCGA: -0.175
CAGGTATA: 0.0585
CGGTGGGC: -0.251
AAGTCGCC: -0.305
CACGAAAC: -0.0332
ACTTCCAA: 0.0503
GCGAAATA: 0.145
ACAGATTG: -0.00523
ATGTCGCG: -0.0771
CAGGCTAC: -0.196
GCTCGTTA: 0.0201
AAGAGACA: 0.101
GAAGCTTA: 0.116
AAGCTGCA: -0.019
AAATGACG: 0.174

Block 2
Target: RNA binding protein fox-1 homolog 2, RRM domain, GST-SBP tag (RBFOX2, Homo sapiens, UniProt O43251-10, residues 100-194)
Method: RNA Bind-n-Seq
Molecule type: RNA
Sample: in vitro
Tested at: 365 nM
Setting: natural RNA segment, single round, ends assumed
Relative to: no-protein control
Direction: higher = stronger binding
Quantity: RBNS enrichment (R)
Constant ends, left off below: GGGAGUUCUACAGUCCGACGAUC … UGGAAUUCUCGGGUGCCAA
Target sequence (chain): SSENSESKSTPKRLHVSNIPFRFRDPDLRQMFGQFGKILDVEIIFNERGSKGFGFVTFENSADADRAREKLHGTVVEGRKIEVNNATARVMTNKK
AAGUAGCUCUGGGGCCAUGUCUUGACUGGCUCCUAAUGGUGACUCCAGGCCAGCACUUGGUCAUUUGAGAACUGUCUUCUGUGUUCUCUGUGACUUAGGCUAGCCCUAGG: 0.369
AUGAAUGGGUUUCUAUAUAUGGGUCUGUGUGAGUGUAUGUGUGUGUGUGAUUUUUUUUUUAAAUUUAUGUUGCGGAAAGGUAACCACAAAGUUAUGAUGAACUGCAAACA: 0.733
UUUUUUAAAUAACAUGUAUUAUGGUACAAUCAAAUUGUUCACAUUACCAAAGCAAUAUUUCUUUGGGAUUCAGUUCAGUGUUUGUGGCAUCUAAUCUGAUCCUUCUUUAC: 0.326
ACAUCACUCCAAGGCUCAGCUGGGCGCUGCUCAUCCCCAACUCUCAUAGUGACAUCACCUGUGGAUAUUUAAUGAGUGUGGGAUGCGGGGUCUGCGGUAGAGAUGGUUUC: 0.341
UGUGGCCACAGAAUGUAACCGUCCAGUUUCUGCCUUUCACUUUCUUGGGGGUUGCUUGUGAAAUUAGGCUAAGUCAUUUGUAGACUAAUCAGUGAUUGUAAGUUUGCCUG: 2.78
GACUGCAGGCUCAUGAGCAGCGUCAAAGACAAUGUGGGCCGUGGCCUGAACAUCGCCCUGGUGAAUGGGGUCAGUGGUGAGCUCCUAGAAGCCAGAGCCUUUGACAUGUG: 1.24
UUAACUCCAAGUGCCUUUUUGACAGUGACAACAGACAGUCCCUCGCUUUUUGUUGUUGUUGGUUUUCUUAACCCCUUUAAUGGAACUGCCUGGAUUUUAUACAGUUAUUA: 0.434
GUCCCCGCCCCUCUUCAGUCCUGCCCUCCCCUCCUCAGUCCUGCCCACCCCGUGCAGCCCAUGCUGAGGCUGCAGUGGUGUCGUGGGUGUUACGUGCAGGAACGUGGAGA: 0.586
UGUCAGAUGCACCCAAGUCCUUAGCCCAUCUGUGCCACUGCAAGAGUCUGCUCUUGUAUUUCUUUCCCUCCCCGAGAAGGGAGGGAGCCACUUUCAGGCCCUCCGGUGUG: 0.221
UAAUCCGCGCUGUUCUUUGCAGCAGUGCUUCCAAGCUUUUUUUGGUGAGCCGAAUGGGCAUGGCUGCGCUGGAUCCUGCGCCUCUGGACGUGCUAGCCAUUUCCAGUGUC: 0.241
UUGGUUCUCUCCUUGGACUUAAGGAAUCUUACCUUUUCCUUCCACAAAGUUCUCCCAGGCAAGGACCAGCUGCCCAUUCUGAGCCCAGGGCAGCCUCUUCAACCAUUAUU: 0.468
CACCUCCCACAAUUUAGGCCGAAGCUAAUAUCCCAGAAAGACUAUAUAUUGUUUGUUUGUUUGUUUGUUGACAGAGAAAAAUUGGUAUUUAUUUUUCUAUUAUAGCCAUA: 21.9

Block 3
Target: ABI1, truncated, D143A, DHFR fusion (Arabidopsis thaliana)
Method: DHFR PCA, deep sequencing
Sample: yeast
Setting: methotrexate growth selection, single substitutions
Added: (+)-ABA 4.8 µM
Relative to: wild-type fitted maximum
Direction: higher = stronger binding
Quantity: relative binding score
Parent: PYL1, truncated, DHFR fusion (Arabidopsis thaliana); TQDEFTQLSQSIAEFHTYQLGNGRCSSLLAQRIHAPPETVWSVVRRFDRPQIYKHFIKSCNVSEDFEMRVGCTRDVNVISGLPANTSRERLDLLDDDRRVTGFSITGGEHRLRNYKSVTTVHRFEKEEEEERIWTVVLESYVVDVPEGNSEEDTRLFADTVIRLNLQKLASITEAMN
K126P: 92.8%
I12Y: 12%
N165E: -2.35%
F47N: -31.4%
Y141V: 2.25%
E125K: 78.6%
S87H: 21.8%
N61Q: 82.1%
F5W: 72.3%
N85M: 69.2%
V78A: 12.6%
S63E: 71.8%

Block 4
Target: CCND2, cyclin fold, Cln2 fusion (human)
Method: yeast growth competition, sequencing
Sample: yeast
Setting: weak parent motif
Relative to: not given
Direction: higher = stronger binding
Quantity: normalised enrichment score
Parent: ANKRD17 docking peptide (human); PSVRRQLFVTVVK; partner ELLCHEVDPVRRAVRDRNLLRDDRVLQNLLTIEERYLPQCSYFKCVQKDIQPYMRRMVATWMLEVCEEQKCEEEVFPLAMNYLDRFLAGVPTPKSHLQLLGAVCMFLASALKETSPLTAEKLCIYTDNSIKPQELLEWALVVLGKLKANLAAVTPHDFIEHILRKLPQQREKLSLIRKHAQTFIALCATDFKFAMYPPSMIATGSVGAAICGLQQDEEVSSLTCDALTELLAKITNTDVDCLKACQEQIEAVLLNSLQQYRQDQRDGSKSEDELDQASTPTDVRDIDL
R5A L7A: -0.038
L7A: 0.521
P1A: -0.125
Q6A: -0.276
K13A: -0.223
R5K F8L: 0.442
V11A: 0.576
V3A: 0.525
R5K: -0.498
R4A: 0.205

Mixed results
PhoQ, residues 284 288 289 292 302 303 TTSMTC — fold induction (PhoP, residues 12 14 15 18 19 AWHSL (Escherichia coli, UniProt P23836); Sort-seq, item: YFP reporter; E. coli; PhoQ-PhoP variant library, added: 10 µM Mg2+; relative to: high Mg2+ state, higher = stronger signaling): 5.8

For quick reference, copied from above (mixed results):
PhoQ, residues 284 288 289 292 302 303 TTSMTC — fold induction (PhoP, residues 12 14 15 18 19 AWHSL (Escherichia coli, UniProt P23836); Sort-seq, item: YFP reporter; E. coli; PhoQ-PhoP variant library, added: 10 µM Mg2+; relative to: high Mg2+ state, higher = stronger signaling): 5.8
